Experimental data gathered from unrelated publications.
A part holds a random share of what one study measured.
Chain of UniProt Q99759 (whole entry, looked up): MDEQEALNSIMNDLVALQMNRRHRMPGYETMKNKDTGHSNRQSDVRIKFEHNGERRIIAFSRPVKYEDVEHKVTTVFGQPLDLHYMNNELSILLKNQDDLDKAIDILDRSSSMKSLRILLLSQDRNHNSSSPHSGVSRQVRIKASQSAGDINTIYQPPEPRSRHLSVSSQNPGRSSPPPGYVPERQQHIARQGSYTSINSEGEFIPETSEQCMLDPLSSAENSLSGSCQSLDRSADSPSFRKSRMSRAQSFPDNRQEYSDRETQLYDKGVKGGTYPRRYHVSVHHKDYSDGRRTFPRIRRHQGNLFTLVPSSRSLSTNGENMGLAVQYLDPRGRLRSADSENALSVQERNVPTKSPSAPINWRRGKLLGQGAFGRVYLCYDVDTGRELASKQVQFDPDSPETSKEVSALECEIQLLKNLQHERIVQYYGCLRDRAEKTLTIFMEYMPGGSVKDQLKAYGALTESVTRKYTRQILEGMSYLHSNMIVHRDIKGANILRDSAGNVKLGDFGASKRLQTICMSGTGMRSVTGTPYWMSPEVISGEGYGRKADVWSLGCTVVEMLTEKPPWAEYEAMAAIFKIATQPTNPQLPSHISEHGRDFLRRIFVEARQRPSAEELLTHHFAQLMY
Chain of UniProt Q9BYP7 (whole entry, looked up): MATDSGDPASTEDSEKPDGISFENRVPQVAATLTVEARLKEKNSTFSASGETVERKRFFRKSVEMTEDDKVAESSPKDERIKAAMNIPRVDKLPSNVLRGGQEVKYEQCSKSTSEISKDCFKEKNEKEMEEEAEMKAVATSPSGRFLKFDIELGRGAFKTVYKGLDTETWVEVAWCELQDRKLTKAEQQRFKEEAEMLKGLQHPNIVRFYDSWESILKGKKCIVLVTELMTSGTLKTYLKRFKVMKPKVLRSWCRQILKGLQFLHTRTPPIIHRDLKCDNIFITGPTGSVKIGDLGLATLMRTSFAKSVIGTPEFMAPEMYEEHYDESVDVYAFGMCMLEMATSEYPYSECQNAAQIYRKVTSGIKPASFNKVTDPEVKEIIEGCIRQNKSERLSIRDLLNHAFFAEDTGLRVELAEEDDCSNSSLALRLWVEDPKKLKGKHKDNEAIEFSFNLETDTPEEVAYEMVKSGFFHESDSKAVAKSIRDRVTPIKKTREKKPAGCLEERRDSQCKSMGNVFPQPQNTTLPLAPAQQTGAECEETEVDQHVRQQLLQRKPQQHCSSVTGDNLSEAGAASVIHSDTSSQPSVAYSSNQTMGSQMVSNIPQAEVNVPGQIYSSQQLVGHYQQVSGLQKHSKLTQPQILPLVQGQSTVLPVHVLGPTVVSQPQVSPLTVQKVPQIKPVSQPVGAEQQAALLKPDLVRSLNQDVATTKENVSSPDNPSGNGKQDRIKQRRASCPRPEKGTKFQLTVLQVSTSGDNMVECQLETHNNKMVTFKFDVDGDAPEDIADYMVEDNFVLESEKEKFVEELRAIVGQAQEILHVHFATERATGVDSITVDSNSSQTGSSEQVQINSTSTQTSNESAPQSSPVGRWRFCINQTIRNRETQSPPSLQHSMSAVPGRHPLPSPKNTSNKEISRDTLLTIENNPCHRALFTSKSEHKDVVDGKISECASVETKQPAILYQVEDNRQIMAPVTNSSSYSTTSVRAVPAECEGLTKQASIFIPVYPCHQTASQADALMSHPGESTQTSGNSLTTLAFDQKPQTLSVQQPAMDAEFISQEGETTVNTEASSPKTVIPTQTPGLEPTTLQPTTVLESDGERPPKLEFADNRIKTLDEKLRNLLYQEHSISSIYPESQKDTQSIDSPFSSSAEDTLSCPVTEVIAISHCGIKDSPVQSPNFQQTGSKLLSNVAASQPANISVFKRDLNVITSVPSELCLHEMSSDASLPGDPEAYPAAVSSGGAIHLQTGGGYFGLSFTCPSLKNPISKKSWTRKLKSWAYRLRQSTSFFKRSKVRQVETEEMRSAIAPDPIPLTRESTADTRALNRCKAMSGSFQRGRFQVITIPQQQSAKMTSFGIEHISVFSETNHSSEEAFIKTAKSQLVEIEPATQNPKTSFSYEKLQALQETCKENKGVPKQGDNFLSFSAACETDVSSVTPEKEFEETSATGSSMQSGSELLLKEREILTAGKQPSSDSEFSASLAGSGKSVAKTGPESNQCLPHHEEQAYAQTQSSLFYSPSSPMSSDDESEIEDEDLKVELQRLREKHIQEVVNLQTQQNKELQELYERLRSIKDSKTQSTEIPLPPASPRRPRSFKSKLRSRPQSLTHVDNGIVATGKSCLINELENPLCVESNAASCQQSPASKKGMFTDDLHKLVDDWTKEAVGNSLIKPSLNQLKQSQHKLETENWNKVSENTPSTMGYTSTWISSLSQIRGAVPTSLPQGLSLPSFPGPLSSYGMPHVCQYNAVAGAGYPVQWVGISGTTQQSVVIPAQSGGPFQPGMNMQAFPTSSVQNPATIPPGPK
Chain of UniProt P37173 (whole entry, looked up): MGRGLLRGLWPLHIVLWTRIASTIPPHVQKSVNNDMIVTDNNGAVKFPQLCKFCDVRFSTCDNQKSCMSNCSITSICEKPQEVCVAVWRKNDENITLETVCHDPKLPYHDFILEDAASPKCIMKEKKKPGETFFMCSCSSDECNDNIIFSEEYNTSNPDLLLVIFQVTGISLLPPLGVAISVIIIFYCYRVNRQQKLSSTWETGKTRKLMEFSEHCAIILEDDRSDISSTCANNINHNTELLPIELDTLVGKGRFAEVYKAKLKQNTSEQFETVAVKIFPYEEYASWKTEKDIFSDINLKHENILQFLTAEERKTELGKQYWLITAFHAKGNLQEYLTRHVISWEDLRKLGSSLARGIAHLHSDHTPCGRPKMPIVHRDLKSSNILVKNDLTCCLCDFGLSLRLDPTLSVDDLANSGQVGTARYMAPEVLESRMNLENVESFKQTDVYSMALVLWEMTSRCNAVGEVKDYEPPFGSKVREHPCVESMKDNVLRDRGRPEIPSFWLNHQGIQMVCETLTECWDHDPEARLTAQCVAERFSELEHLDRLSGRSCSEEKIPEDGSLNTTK
Chain of UniProt P07948 (whole entry, looked up): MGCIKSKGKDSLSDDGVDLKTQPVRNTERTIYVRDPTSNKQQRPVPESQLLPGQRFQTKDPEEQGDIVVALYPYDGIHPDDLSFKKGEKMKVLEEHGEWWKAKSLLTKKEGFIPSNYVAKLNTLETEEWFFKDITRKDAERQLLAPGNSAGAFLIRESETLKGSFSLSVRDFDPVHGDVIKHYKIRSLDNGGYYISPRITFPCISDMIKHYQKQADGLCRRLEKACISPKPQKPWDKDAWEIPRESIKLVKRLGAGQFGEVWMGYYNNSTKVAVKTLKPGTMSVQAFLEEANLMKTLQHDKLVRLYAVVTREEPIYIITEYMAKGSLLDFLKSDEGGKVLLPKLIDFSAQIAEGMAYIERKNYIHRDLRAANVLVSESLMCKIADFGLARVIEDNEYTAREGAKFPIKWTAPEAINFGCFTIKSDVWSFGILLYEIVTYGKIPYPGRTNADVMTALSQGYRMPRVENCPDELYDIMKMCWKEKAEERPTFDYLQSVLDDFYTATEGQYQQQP
Chain of UniProt P53355 (whole entry, looked up): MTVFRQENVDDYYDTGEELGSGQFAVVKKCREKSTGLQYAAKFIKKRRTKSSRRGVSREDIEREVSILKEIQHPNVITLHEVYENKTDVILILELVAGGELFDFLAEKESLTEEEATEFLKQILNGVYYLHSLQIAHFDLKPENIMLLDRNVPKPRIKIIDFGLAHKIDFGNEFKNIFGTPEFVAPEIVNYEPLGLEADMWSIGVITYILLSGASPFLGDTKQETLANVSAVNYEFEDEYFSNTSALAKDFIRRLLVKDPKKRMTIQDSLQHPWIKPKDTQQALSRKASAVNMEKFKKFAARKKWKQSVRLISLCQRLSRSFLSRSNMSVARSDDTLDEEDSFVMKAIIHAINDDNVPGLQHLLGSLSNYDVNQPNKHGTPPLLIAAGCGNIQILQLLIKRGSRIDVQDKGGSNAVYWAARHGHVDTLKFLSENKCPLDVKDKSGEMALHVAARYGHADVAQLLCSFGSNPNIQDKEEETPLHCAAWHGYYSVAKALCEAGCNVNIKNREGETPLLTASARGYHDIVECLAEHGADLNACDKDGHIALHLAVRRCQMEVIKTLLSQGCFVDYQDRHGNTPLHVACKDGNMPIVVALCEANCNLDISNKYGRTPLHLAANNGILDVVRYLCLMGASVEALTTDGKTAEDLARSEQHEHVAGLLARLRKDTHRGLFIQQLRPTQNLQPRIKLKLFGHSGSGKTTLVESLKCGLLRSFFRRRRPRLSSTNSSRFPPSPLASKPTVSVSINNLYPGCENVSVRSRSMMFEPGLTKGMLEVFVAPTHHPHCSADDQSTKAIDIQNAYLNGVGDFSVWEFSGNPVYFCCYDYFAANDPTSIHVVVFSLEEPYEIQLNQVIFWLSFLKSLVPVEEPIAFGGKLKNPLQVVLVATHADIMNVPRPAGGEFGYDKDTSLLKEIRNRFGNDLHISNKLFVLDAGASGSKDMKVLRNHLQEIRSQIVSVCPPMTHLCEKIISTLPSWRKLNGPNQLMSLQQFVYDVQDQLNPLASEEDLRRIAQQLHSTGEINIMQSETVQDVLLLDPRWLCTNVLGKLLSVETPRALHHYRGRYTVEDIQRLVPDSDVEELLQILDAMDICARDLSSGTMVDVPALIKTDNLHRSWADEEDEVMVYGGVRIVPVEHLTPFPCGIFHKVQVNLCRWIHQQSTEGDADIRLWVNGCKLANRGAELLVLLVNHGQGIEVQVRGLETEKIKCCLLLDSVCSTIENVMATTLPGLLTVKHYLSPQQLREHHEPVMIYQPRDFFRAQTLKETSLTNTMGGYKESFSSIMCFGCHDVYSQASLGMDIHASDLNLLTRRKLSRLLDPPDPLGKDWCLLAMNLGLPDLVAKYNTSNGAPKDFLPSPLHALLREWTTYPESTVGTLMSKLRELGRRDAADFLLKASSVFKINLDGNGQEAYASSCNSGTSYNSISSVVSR

Block 1 — action: inhibitor; tested at: 10 µM; baseline: control; endpoint: remaining activity
Target: Diamine acetyltransferase 1 (Homo sapiens, UniProt P21673)
Residues (P21673 1-171): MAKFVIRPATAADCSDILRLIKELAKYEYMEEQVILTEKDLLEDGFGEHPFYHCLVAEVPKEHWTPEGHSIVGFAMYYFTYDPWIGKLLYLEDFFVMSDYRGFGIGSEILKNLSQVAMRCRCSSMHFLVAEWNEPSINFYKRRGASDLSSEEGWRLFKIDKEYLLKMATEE
c1ccc2c(c1)CCO2: 91.6%
O=C(O)C(=O)O: 100%
COc1cc(O)c2c(=O)c(O)c(-c3ccc(O)c(O)c3)oc2c1: 95.4%
COC(=O)c1ccccc1O: 89.3%
COc1ccc(-c2cc(=O)c3c(O)c(OC)c(OC)cc3o2)cc1OC: 91.7%
COc1ccc2[nH]cc(CCNC(C)=O)c2c1: 114%
CC(C)c1ccc(C=O)cc1: 92.9%
CCCCCCCCCCCCCCC(=O)OC: 114%
OC[C@@H](O)[C@@H](O)[C@@H](O)[C@@H](O)CO: 93.2%
COc1ccc2cc3[n+](cc2c1O)CCc1cc2c(cc1-3)OCO2: 101%

Block 2 — observed: enzyme activity; action: inhibitor; tested at: 0.5 µM; baseline: control; endpoint: remaining activity
SMILES: O=C1NC(=O)C(c2c[nH]c3ccccc23)=C1c1c[nH]c2ccccc12
IKBKB (Homo sapiens, UniProt O14920): 106%
MAP3K3 (Homo sapiens, UniProt Q99759): 127%
CAMKK2 (Homo sapiens, UniProt Q96RR4): 92.8%
Tyrosine-protein kinase Lyn, isoform B (LYN, Homo sapiens, UniProt P07948): 102%
TGFBR1 (Homo sapiens, UniProt P36897): 96.6%
PRKCA (Homo sapiens, UniProt P17252): 27.7%
GRK3 (Homo sapiens, UniProt P35626): 87%
NEK2 (Homo sapiens, UniProt P51955): 102%
Protein kinase C beta type, isoform beta-I (PRKCB, Homo sapiens, UniProt P05771): 26.1%
TGFBR2 (Homo sapiens, UniProt P37173): 95.5%
Cyclin-dependent kinase 4, with cyclin D1 (CDK4, Homo sapiens, UniProt P11802): 97.4%
STK11 (Homo sapiens, UniProt Q15831): 107%
CHEK2 (Homo sapiens, UniProt O96017): 124%
Cyclin-dependent kinase 5, with p25 (CDK5, Homo sapiens, UniProt Q00535): 87.4%
MAPK9 (Homo sapiens, UniProt P45984): 95.4%
IKBKE (Homo sapiens, UniProt Q14164): 103%
STK10 (Homo sapiens, UniProt O94804): 49.6%
STK39 (Homo sapiens, UniProt Q9UEW8): 93.6%
OXSR1 (Homo sapiens, UniProt O95747): 86.3%
DAPK2 (Homo sapiens, UniProt Q9UIK4): 88.6%
DAPK1 (Homo sapiens, UniProt P53355): 79.4%
cGMP-dependent protein kinase 1, isoform beta (PRKG1, Homo sapiens, UniProt Q13976): 82.4%
PRKACA (Homo sapiens, UniProt P17612): 101%
CAMK2D (Homo sapiens, UniProt Q13557): 65%

Block 3 — Compound: c1ccc(N2CCN(Cc3nc4ccccc4[nH]3)CC2)nc1; technique: competition with immobilised ligand; tested at: 1 µM; endpoint: remaining binding
eIF-2-alpha kinase GCN2, C-terminal kinase domain (EIF2AK4, Homo sapiens, UniProt Q9P2K8, S808G); binding: 65%
TLK1 (Homo sapiens, UniProt Q9UKI8); cell-free assay: 95%
TAOK2 (Homo sapiens, UniProt Q9UL54); binding: 83%
CDK8 (Homo sapiens, UniProt P49336); binding: 100%
TIE1 (Homo sapiens, UniProt P35590); cell-free assay: 96%
ITK (Homo sapiens, UniProt Q08881); cell-free assay: 100%
EIF2AK1 (Homo sapiens, UniProt Q9BQI3); binding: 100%
PRKD3 (Homo sapiens, UniProt O94806); binding: 100%
MAP3K11 (Homo sapiens, UniProt Q16584); binding: 100%
FLT3 (Homo sapiens, UniProt P36888, D835V/ITD); binding: 100%
STK33 (Homo sapiens, UniProt Q9BYT3); binding: 97%
PIK3C2G (Homo sapiens, UniProt O75747); binding: 100%
TGFBR2 (Homo sapiens, UniProt P37173); cell-free assay: 88%
STK35 (Homo sapiens, UniProt Q8TDR2); binding: 100%
Tyrosine-protein kinase JAK2, JH1 (JAK2, Homo sapiens, UniProt O60674); binding: 100%
ACVR1 (Homo sapiens, UniProt Q04771); cell-free assay: 100%
PHKG1 (Homo sapiens, UniProt Q16816); cell-free assay: 100%
PRKAA2 (Homo sapiens, UniProt P54646); cell-free assay: 100%
PHKG2 (Homo sapiens, UniProt P15735); cell-free assay: 82%
FGFR3 (Homo sapiens, UniProt P22607, G697C); cell-free assay: 100%
MAP3K3 (Homo sapiens, UniProt Q99759); binding: 100%
WNK4 (Homo sapiens, UniProt Q96J92); binding: 100%
WNK3 (Homo sapiens, UniProt Q9BYP7); binding: 100%
TSSK3 (Homo sapiens, UniProt Q96PN8); binding: 92%
GRK7 (Homo sapiens, UniProt Q8WTQ7); binding: 100%

Block 4 — observed: enzyme activity; action: inhibitor; tested at: 1 µM; endpoint: activity vs control
SMILES: CC(C)S(=O)(=O)c1ccc2nccc(Nc3ccc4sc(C5CCCC5)nc4c3)c2c1
BRSK2 (Homo sapiens, UniProt Q8IWQ3): 100%
PRKCE (Homo sapiens, UniProt Q02156): 94%
DAPK1 (Homo sapiens, UniProt P53355): 117%
LYN (Homo sapiens, UniProt P07948): 95%
MAPK8 (Homo sapiens, UniProt P45983): 104%
GRK2 (Homo sapiens, UniProt P25098): 93.5%
EPHB4 (Homo sapiens, UniProt P54760): 108%
MAP4K2 (Homo sapiens, UniProt Q12851): 93.5%
LIM domain kinase 2 (LIMK2, Homo sapiens, UniProt P53671): 85%
LATS2 (Homo sapiens, UniProt Q9NRM7): 117%
TNIK (Homo sapiens, UniProt Q9UKE5): 88%
WNK3 (Homo sapiens, UniProt Q9BYP7): 117%

Excerpt of the above (block 1):
COc1ccc2cc3[n+](cc2c1O)CCc1cc2c(cc1-3)OCO2: 101%
COc1ccc2[nH]cc(CCNC(C)=O)c2c1: 114%
c1ccc2c(c1)CCO2: 91.6%
O=C(O)C(=O)O: 100%
OC[C@@H](O)[C@@H](O)[C@@H](O)[C@@H](O)CO: 93.2%
CCCCCCCCCCCCCCC(=O)OC: 114%
